Experimental data of several laboratories.
Every numbered part comes from another study and shows a few of its results, in no order. Positions count from the first letter of the parent shown.

Series 1 — method: universal PBM; form: double-stranded DNA, one strand shown; sample: in vitro; concentration: not given; reading: higher = stronger binding
Target: Sal-like protein 4, full length isoform B (SALL4, Homo sapiens, UniProt Q9UJQ4-2, residues 1-616)
Setting: 8-mer, flanks averaged, mean of replicates
| Sequence | E-score |
| --- | --- |
| CTACCCTA | -0.0623 |
| AAAGCAAC | -0.00552 |
| CAATCAAC | 0.00315 |
| CGCTTACG | -0.207 |
| ACTTCGCA | -0.0448 |
| AGGGTATG | 0.0788 |
| GGACCTTA | -0.101 |
| AAGTATGC | 0.17 |
| AAAGTCAA | 0.0169 |
| GCTAATGA | -0.00831 |
| GACGTTCA | -0.00365 |
| GTTCTTCA | -0.0526 |
| TCCAAGAA | 0.0111 |
| TAAAGGTA | 0.225 |
| AGATCGCA | -0.133 |
| CTTAGGTC | -0.17 |
| GTGCGCTA | -0.105 |
| AACTAAGA | 0.158 |
| ACCTCAGA | -0.286 |
| GCTAGCAC | -0.178 |
| ACCACCCG | -0.289 |
| GCGGATAC | 0.0427 |
| CAGGCACC | -0.293 |

Series 2 — method: competition protein-binding microarray; form: double-stranded DNA, one strand shown; sample: in vitro; concentration: 2 µM; with: Cbf1 competitor, 0.05 µM; reading: higher = stronger binding; constant ends, left off below: … GTCTTGATTCGCTTGACGCTGCTG
Target: Phosphate system positive regulatory protein PHO4, full length, GST-tagged (PHO4, Saccharomyces cerevisiae, UniProt P07270, residues 1-312)
Setting: whole 60-bp probe, lowest competitor level
Residues (chain): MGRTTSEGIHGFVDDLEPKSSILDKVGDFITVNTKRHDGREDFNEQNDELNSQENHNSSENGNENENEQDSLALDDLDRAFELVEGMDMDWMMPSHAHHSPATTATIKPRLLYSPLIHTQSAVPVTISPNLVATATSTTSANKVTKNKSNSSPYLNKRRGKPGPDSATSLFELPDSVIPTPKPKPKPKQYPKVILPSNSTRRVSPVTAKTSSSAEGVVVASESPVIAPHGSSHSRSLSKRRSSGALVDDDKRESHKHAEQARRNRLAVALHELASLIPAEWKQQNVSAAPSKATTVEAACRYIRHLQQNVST
| Sequence | fluorescence intensity [a.u.] |
| --- | --- |
| CAGTAACAGGTACAGCACGTGCAAAATCAGGATGAC | 20000 |
| AAAGCGGTAATTTGCATGGTGGGTGCAGATATCTAT | 5750 |
| GTACTGCACCATTTGACCGTGATGGACACCATGGAG | 6620 |
| AAAACGAGCCTCCATCACGTGCAAAAAAGAAATAGT | 16600 |
| CAGTTCAACCTCACTCGCGTGCGGAGGTGTGAGGTG | 10000 |
| TTATTAGGTTCGAGTCACGTGATGGGTCCTTTTCTG | 12500 |
| TCCGTCAGTGTAGCGCGCGTGCGGACCAGAACGTCT | 9470 |
| GCGCTGCGCAATCTCAACGTGGTGAGGATCTTTGAA | 10200 |
| AAATACAAAGACAAGCATGTGCTTTCGGCAAAAGTG | 11700 |
| AAATTACTAAGTTGAGCCGTGGGTGACGCCGTATGA | 5410 |
| CTTTCTGCCTTGGAAGGCGTGATGGTGATGGTACAT | 6770 |
| AATACCCTGGCATCTCTCGTGACGGGTTACCATTTA | 4840 |
| ACAAGTGCCGACTGACTCGTGTCCTGGTAATAACAG | 9210 |
| AGTTGTTGCTCGTCGCTCGTGTAGGACTGTAGTTGC | 6140 |
| GTCTTGTCTCATTTTCACGTGAGATTCCCCACTTCA | 8980 |
| TGAAAAGTGTGCTGGCACGGGATCGTTACTAATCCA | 10400 |
| CTGCTTGGCGTATGGGGCGTGCAAATAACTGTTCAT | 9770 |
| CAATTGTTGCTCTGGCACGTGAGATATATGGTAAGA | 15600 |
| GCGGCTAAATTTAAGGGCGTGATGGCAGAACTCGGC | 5010 |
| CTAACGAAGGTTTGCCGAGTGGGTGACAAGCCAAGT | 3490 |
| ATGCCATGGGTGTCTCATGTGGTCCAGTGAGTTGAT | 7980 |
| TCCAGTGAAGCGCCCCTCGTGCTTTGGAAATCCCTG | 12900 |
| CTTCTGTAAATTTGACCAGTGGGTGGACGCGCCCCG | 3670 |
| CATACCCAACCTTTTCACGTGACCTAAGATATTTGT | 12600 |
| AAATTACTAAGTTGGGTGGTGGGTGACGCCGTATGA | 5050 |

Series 3 — method: RNA Bind-n-Seq; form: RNA; sample: in vitro; concentration: 365 nM; reference: no-protein control; reading: higher = stronger binding
Target: RNA binding protein fox-1 homolog 2, RRM domain, GST-SBP tag (RBFOX2, Homo sapiens, UniProt O43251-10, residues 100-194)
Setting: natural RNA segment, single round, ends assumed
Constant ends, left off below: GGGAGUUCUACAGUCCGACGAUC … UGGAAUUCUCGGGUGCCAA
Construct (chain): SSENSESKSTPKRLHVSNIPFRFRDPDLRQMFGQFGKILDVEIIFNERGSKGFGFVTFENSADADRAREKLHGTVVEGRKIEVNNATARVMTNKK
| Sequence | RBNS enrichment (R) |
| --- | --- |
| UGACUGGUCCGCACAACACACCCACUGCUCAGUUUCCUGAGAAGAGAGAUCUCAAGACAUUUUAAUAACAGCUUGAGCCCUCUUCUCCUCUGUAGGAACUUAGGUUAAUA | 0.403 |
| GUUGAGCCCAAGUGGUGGAGUCCUAUUCAUGGGCCUCAGUGCAUGCUGGCUUUAGCCCCAUGCUCAGGGUUCUCUGGGAAGUUUCAGGUUUCCAAGAUAGCACAGUGACC | 1.09 |
| GUUUGAGUUUUACGCAGUAUAUUUUUUCCACAAAACCUGUAAAGAUUUAAGUUAUUUUAAUUUAUUGUGAAUCCGAAAACUAGAUUUAGUUGGUCAGAAUCUGUAAAGUA | 0.449 |
| GCCCUAGUCUCCUCCAUUGACAGUCAUCCAUCUCUGCCUAAGGGACAAAGAAAUCCUUCUACCUGAGAAGGCAGAAAUAGACCUGCCCGUGGGAGGAGCAUCAAGGGGCC | 0.303 |
| GAAUAGUGGAGUUAUAGAGAAGGGCCAGUCCUAAGAUGGAAGGAGCCCUACAAUCUGACUCCUUCUAGGGACUCUGGGGCUAGCUUUGUGGGAGAGUCAGCCCUGCCCCU | 0.549 |
| CCAGGAGAAGCCAUUAAAAGCCACUGGUUAUUUUAUUUUUCAUCAGGCAAUUUUCGAGGUUUUUAUUUGUUCGGUAUUGUUUUUUUACACUGUGGUACAUAUAAGCAACU | 0.582 |
| AGUUGCUCCGUGGGCUCUCUAGGGGCUCUGGGCUCUGCCUGCUGCAGUGUCCUCAGUGAGCUCUCUGAGGAGCAGGCUUUCCAUGUCAGCUAUCUGGAUAUUGGUAUGGC | 0.422 |
| GAUUUACUGAAAUAGCUAAUUGUCAGGUGCUUAAGCUUUUGUGCAGUAAGCCUAAAAGUUAGCAGAAGAUGGCCUCCUGCCAGCAGGAAAUCUUUACCCUUUAGUACCCG | 0.21 |
| UAGAGGACUGUCUGGUAUCCAAGACGACUAGUGUAUGUCAGGUCCUCAAAUCACCAACAGCUUGUUACUACAACAAAUUGUUUUGAUUUUAGUGCCUGUUGAGGACUUGA | 0.46 |
| CUUAGUAAAUUUGCAUUUGAUAUAUCAUUGAUGAGAUUUUGUUGUUAUGUAAUAUUCUUUGGCUACGCAUCUGUCCAGCAUCUUAUUAACCAUAAUACUGUGAUCAUUAU | 1.67 |
| AGUUCCCACAGCUUGUGUCGUGAAAGAGCAGAGAGAUGAUGUUAAACUCCUUGGGAGGAGAGAGGGCUUCUUUUGGUUUCCCUGGAGUGAGACAGCCAGGUGUCUUUCUU | 1.8 |
| CUUCUUUCUCAACAAUAAAAAAUGUAACUAUUUUGAAUGCCCACAAAUCCCAUUCCAGUGUUACUUUCUGUGAAUGCAGUACCAUAUUCUCAUUUUCAAUGACAUUUCAA | 0.985 |

Series 4 — method: RNA Bind-n-Seq; form: RNA; sample: in vitro; concentration: 20 nM; setting: 6-mer, flanks averaged, single round; with: 150 mM LiCl; reference: input library; reading: higher = stronger binding
Target: TAR DNA-binding protein 43, full length, His tag (TARDBP, Homo sapiens, UniProt Q13148, residues 1-414)
| Sequence | 6-mer enrichment (R) |
| --- | --- |
| AUCAAA | 0.805 |
| UGAGGC | 1.04 |
| AACUAG | 0.841 |
| AGACAA | 0.811 |
| AAUGUU | 1.11 |
| CUGCAA | 0.857 |
| ACUAGA | 0.817 |
| UAAGGC | 0.879 |
| CUUGUG | 1.21 |
| CGACGA | 0.794 |
| UAGGAA | 0.897 |
| UGCAUC | 0.876 |
| GGUUUG | 1.36 |
| UACCUC | 0.9 |
| UUCCGC | 0.898 |
| CGCGGU | 1 |
| CAAUAG | 0.876 |

Series 5 — method: protein binding microarray; form: double-stranded DNA, one strand shown; sample: in vitro; concentration: not given; reference: not given; reading: higher = stronger binding
Target: Histone acetyltransferase KAT6A, both winged helices, GST fusion (KAT6A, Homo sapiens, UniProt Q92794, residues 1-181)
Setting: 8-mer, flanks averaged, mean of 2 arrays, mostly near background
Construct (chain): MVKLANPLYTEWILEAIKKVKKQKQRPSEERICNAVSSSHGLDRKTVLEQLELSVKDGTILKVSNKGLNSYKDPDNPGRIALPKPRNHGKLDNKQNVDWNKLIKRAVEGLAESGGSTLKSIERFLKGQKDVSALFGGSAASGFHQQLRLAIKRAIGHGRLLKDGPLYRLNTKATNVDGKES
| Sequence | E-score |
| --- | --- |
| AAAATTTC | -0.0207 |
| CATGCAGA | 0.0088 |
| CATGTACG | 0.0106 |
| CAGCTGCG | 0.178 |
| GGGCTCAC | -0.0959 |
| ACTGAAGT | -0.147 |
| TCCCCTAA | -0.156 |
| AAATAGAT | -0.0826 |
| CTTATCTC | -0.129 |
| CACTTCCC | -0.0815 |
| CCGATAAG | 0.0561 |
| TGATCACA | -0.041 |
| AGAGTCGG | 0.0847 |
| AAATGACG | 0.126 |
| CCCGGGGA | 0.201 |
| ATATTCAC | -0.212 |
| CCAGCGCC | 0.222 |
| ATGTCAAG | -0.0564 |
| ATGGATAC | -0.155 |
| AGATCGCA | -0.00461 |
| TTATCCAA | -0.0393 |
| ATGACATA | -0.156 |
| AACCCACT | -0.0556 |
| GGGCGGGA | 0.302 |
| TGGCCCAA | -0.164 |

Series 6 — target: CCND2, cyclin fold, Cln2 fusion (human); method: yeast growth competition, sequencing; sample: yeast; setting: weak parent motif; reference: not given; reading: higher = stronger binding
Parent: CDKN1B docking peptide (human); PSACRNLFGPVDH; partner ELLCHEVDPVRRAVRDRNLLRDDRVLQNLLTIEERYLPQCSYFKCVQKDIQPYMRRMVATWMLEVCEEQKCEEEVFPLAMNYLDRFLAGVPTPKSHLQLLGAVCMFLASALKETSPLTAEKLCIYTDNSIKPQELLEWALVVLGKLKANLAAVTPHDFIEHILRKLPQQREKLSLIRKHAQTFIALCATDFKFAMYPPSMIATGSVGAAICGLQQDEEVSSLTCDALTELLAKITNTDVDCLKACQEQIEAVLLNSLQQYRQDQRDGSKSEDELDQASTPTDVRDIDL
| Substitution | normalised enrichment score |
| --- | --- |
| A3N | 0.000751 |
| R5L | 0.0566 |
| R5T | 0.127 |
| P10A | -0.231 |
| H13N | -0.0579 |
| S2T | 0.244 |
| V11I | -0.115 |
| S2W | 0.0216 |
| N6P | -0.0874 |
| D12E | 0.177 |
| P10K | -0.177 |
| R5G | -0.0841 |
| G9R | -0.19 |
| R5C | -0.309 |
| R5K | -0.0724 |
| P1Q | 0.409 |
| L7N | -0.123 |
| V11H | 0.46 |
| H13D | -0.00303 |
| A3V | 0.069 |
| G9Q | 0.513 |
| G9W | 0.214 |
| V11M | 0.374 |
| F8Q | 0.34 |
| N6G | 0.0847 |

A few entries again (series 1):
| Sequence | E-score |
| --- | --- |
| AAAGCAAC | -0.00552 |
| ACCACCCG | -0.289 |
| CTACCCTA | -0.0623 |
| CAGGCACC | -0.293 |
| TAAAGGTA | 0.225 |
| CAATCAAC | 0.00315 |
| GCTAGCAC | -0.178 |
| AAAGTCAA | 0.0169 |
| AGGGTATG | 0.0788 |
| GTGCGCTA | -0.105 |
| TCCAAGAA | 0.0111 |
| AGATCGCA | -0.133 |
| GCTAATGA | -0.00831 |
| GACGTTCA | -0.00365 |
| AAGTATGC | 0.17 |
| CGCTTACG | -0.207 |
| GGACCTTA | -0.101 |
| ACTTCGCA | -0.0448 |
| ACCTCAGA | -0.286 |
| AACTAAGA | 0.158 |
| CTTAGGTC | -0.17 |
